Measurements collected from several papers.
A part holds a random share of what one study measured.
UniProt P42336, sequence (whole entry, unmodified, looked up): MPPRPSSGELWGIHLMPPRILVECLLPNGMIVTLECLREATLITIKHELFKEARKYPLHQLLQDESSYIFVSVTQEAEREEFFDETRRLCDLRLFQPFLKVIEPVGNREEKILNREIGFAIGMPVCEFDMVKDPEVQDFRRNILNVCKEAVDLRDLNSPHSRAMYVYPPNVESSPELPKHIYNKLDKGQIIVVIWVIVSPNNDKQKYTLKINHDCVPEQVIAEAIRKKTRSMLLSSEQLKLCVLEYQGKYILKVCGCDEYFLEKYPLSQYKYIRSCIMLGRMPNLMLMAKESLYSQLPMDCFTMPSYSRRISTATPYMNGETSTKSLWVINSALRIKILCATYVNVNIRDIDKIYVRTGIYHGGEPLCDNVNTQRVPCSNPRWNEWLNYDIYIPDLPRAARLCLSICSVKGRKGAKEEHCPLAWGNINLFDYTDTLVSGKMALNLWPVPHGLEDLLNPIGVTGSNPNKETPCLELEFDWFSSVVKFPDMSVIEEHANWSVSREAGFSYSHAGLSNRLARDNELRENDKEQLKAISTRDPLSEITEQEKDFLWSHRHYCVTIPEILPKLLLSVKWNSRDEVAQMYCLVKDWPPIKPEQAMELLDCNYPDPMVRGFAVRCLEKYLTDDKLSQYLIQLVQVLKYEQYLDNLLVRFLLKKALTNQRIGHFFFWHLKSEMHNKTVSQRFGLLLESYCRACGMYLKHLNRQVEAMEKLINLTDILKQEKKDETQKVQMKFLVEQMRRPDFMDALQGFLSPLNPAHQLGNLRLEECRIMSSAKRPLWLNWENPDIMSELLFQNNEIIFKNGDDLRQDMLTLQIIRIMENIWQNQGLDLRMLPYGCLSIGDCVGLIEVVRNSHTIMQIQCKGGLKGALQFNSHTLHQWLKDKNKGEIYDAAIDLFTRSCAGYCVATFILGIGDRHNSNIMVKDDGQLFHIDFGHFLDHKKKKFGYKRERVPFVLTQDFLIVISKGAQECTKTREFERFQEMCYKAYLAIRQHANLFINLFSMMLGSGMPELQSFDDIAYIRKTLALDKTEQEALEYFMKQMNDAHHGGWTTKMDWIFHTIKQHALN
UniProt P00519, sequence (whole entry, unmodified, looked up): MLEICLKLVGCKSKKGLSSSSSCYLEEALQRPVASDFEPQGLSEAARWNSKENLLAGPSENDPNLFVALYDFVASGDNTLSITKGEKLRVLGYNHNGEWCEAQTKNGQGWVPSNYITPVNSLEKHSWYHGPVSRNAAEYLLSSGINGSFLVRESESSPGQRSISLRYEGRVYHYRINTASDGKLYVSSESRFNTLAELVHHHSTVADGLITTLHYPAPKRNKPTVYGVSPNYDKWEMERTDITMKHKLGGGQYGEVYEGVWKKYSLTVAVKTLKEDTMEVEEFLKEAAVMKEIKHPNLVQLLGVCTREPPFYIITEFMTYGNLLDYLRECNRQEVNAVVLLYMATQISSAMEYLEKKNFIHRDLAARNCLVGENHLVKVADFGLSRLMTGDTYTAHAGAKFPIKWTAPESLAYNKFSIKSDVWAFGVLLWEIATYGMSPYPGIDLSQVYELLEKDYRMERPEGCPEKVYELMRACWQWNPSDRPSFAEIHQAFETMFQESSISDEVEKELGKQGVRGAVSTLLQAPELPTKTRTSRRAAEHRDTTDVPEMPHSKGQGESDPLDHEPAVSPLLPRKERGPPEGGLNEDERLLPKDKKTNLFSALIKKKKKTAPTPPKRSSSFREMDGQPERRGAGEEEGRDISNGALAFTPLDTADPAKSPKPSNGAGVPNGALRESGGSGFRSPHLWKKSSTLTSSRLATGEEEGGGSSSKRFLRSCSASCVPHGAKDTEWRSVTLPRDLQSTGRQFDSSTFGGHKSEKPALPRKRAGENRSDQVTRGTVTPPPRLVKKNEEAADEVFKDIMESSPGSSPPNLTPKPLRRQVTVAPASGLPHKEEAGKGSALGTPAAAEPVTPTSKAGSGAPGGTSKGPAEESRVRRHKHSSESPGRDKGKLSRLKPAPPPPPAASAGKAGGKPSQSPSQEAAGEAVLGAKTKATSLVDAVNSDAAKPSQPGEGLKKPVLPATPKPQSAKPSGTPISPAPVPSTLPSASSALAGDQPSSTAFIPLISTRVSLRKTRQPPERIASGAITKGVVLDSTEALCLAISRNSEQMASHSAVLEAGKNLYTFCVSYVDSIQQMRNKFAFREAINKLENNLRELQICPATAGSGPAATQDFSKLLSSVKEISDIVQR
UniProt Q9NSY1, sequence (whole entry, looked up): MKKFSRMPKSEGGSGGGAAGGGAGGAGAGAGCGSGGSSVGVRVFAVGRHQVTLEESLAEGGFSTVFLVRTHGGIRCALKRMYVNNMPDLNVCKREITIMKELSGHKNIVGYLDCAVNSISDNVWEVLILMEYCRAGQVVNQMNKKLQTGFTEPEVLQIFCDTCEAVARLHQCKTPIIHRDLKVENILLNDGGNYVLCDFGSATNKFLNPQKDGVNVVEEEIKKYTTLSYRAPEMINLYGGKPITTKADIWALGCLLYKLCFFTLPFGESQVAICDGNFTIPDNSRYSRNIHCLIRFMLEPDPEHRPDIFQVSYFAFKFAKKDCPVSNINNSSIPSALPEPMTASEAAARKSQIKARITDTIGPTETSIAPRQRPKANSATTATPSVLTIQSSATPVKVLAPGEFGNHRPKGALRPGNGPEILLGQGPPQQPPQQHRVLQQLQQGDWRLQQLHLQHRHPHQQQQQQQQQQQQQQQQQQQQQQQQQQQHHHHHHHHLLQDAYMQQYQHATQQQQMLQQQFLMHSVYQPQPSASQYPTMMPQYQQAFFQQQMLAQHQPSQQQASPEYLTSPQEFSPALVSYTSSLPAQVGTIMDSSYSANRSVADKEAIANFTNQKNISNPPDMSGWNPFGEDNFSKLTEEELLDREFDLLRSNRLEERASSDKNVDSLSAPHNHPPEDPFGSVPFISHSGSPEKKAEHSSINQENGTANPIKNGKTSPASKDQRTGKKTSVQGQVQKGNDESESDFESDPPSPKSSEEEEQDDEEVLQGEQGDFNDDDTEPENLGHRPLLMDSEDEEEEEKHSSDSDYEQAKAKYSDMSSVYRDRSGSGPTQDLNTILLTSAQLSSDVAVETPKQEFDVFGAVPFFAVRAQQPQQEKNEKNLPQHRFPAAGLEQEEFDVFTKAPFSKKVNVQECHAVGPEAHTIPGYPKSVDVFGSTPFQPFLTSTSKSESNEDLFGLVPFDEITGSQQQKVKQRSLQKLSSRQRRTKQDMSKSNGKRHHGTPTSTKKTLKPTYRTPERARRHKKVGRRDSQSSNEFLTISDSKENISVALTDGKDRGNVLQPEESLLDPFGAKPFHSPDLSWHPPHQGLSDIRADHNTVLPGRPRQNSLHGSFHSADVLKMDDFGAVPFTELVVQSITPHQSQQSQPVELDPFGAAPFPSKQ
UniProt P33981, sequence (whole entry, looked up): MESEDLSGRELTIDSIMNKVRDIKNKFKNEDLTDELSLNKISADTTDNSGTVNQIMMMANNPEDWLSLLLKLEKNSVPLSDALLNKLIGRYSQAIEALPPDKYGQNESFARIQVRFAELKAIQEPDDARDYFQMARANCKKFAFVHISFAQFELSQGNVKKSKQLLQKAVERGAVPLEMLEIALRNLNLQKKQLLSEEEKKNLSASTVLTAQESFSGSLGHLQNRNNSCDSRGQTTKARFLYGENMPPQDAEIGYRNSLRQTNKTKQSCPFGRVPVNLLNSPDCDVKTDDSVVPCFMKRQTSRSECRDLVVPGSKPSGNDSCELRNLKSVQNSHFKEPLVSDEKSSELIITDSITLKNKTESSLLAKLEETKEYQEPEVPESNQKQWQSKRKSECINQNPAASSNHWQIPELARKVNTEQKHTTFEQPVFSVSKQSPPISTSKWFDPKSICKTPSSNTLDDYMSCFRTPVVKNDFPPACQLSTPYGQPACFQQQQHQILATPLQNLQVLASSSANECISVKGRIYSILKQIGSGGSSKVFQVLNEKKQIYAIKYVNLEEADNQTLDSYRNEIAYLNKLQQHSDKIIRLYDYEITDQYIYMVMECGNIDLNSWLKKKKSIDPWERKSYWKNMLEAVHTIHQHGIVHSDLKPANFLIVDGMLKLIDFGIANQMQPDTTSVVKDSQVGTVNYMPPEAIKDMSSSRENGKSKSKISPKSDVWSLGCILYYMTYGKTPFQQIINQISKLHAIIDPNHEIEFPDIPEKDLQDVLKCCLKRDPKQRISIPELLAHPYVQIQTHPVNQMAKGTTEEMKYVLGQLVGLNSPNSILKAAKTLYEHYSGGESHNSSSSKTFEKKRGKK
UniProt Q16644, sequence (whole entry, looked up): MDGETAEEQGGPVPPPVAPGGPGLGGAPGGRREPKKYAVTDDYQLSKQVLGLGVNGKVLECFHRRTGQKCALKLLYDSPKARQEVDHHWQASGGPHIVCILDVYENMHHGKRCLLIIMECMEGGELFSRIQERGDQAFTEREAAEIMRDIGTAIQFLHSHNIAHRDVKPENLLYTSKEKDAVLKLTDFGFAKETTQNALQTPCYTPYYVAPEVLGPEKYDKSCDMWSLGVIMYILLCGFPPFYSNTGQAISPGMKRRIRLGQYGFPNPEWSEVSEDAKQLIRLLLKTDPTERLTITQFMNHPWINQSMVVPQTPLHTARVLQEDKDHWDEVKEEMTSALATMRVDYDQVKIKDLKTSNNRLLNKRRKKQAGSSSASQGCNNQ
UniProt Q5UAW9, sequence (whole entry, looked up): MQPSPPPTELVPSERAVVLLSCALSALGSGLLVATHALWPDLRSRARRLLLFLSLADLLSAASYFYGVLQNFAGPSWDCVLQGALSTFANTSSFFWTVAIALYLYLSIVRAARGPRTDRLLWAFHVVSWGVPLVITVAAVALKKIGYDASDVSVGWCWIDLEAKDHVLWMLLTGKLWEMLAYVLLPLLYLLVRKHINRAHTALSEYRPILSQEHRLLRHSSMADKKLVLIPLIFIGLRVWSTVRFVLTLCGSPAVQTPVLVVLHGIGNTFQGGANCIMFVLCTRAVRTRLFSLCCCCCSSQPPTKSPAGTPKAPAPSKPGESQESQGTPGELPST

Block 1
SMILES: CC(C)CN(C)c1nc(N)c(C(=O)N=C(N)N)nc1Cl
Observed: β-arrestin recruitment
Mode: agonist
Method: PRESTO-Tango
Tested at: 10 µM
Baseline: untreated
target	fold over basal
Gamma-aminobutyric acid type B receptor subunit 1 (GABBR1, Homo sapiens, UniProt Q9UBS5)	0.71 fold
Galanin receptor type 1 (GALR1, Homo sapiens, UniProt P47211)	0.89 fold
Metabotropic glutamate receptor 8 (GRM8, Homo sapiens, UniProt O00222)	0.65 fold
Urotensin-2 receptor (UTS2R, Homo sapiens, UniProt Q9UKP6)	0.62 fold
Probable G-protein coupled receptor 152 (GPR152, Homo sapiens, UniProt Q8TDT2)	0.45
G-protein coupled estrogen receptor 1 (GPER1, Homo sapiens, UniProt Q99527)	0.68
G-protein coupled receptor 157 (GPR157, Homo sapiens, UniProt Q5UAW9)	0.71
Glucagon-like peptide 1 receptor (GLP1R, Homo sapiens, UniProt P43220)	0.4 fold
Leukotriene B4 receptor 2, isoform b (LTB4R2, Homo sapiens, UniProt Q9NPC1)	0.63
Prostaglandin D2 receptor (PTGDR, Homo sapiens, UniProt Q13258)	0.94
P2Y purinoceptor 4 (P2RY4, Homo sapiens, UniProt P51582)	0.88
Glucagon-like peptide 2 receptor (GLP2R, Homo sapiens, UniProt O95838)	0.3 fold
Alpha-1D adrenergic receptor (ADRA1D, Homo sapiens, UniProt P25100)	0.87
Galanin receptor type 3 (Homo sapiens, UniProt O60755)	0.56 fold
G-protein coupled receptor 37-like 1 (GPR37L1, Homo sapiens, UniProt O60883)	0.64
Somatostatin receptor type 1 (SSTR1, Homo sapiens, UniProt P30872)	0.87

Block 2
SMILES: CC(=O)N1CCC(c2ccc(C(=O)NC(=N)N)cc2C(F)(F)F)CC1
Tested at: 1 µM
target	observed	method	remaining binding
Cyclin-dependent kinase 19 (CDK19, Homo sapiens, UniProt Q9BWU1)	–	competition binding	100%
BMP-2-inducible protein kinase (BMP2K, Homo sapiens, UniProt Q9NSY1)	cell-free assay	competition with immobilised ligand	96%
Serine/threonine-protein kinase STK11 (STK11, Homo sapiens, UniProt Q15831)	cell-free assay	competition with immobilised ligand	73%
Phosphatidylinositol 4,5-bisphosphate 3-kinase catalytic subunit alpha isoform (PIK3CA, Homo sapiens, UniProt P42336, E542K)	cell-free assay	competition with immobilised ligand	82%
Casein kinase II subunit alpha' (CSNK2A2, Homo sapiens, UniProt P19784)	cell-free assay	competition with immobilised ligand	100%
Glycogen synthase kinase-3 beta (GSK3B, Homo sapiens, UniProt P49841)	cell-free assay	competition with immobilised ligand	85%
Receptor-type tyrosine-protein kinase FLT3 (FLT3, Homo sapiens, UniProt P36888, D835V/ITD)	cell-free assay	competition with immobilised ligand	100%
Myosin light chain kinase family member 4 (MYLK4, Homo sapiens, UniProt Q86YV6)	cell-free assay	competition with immobilised ligand	100%
Activin receptor type-1B (ACVR1B, Homo sapiens, UniProt P36896)	cell-free assay	competition with immobilised ligand	93%
Serine/threonine-protein kinase SBK1 (SBK1, Homo sapiens, UniProt Q52WX2)	cell-free assay	competition with immobilised ligand	100%
Hepatocyte growth factor receptor (MET, Homo sapiens, UniProt P08581, M1250T)	cell-free assay	competition with immobilised ligand	100%
Hepatocyte growth factor receptor (MET, Homo sapiens, UniProt P08581, Y1235D)	cell-free assay	competition with immobilised ligand	100%
Bone morphogenetic protein receptor type-1B (BMPR1B, Homo sapiens, UniProt O00238)	cell-free assay	competition with immobilised ligand	100%
Serine/threonine-protein kinase 10 (STK10, Homo sapiens, UniProt O94804)	cell-free assay	competition with immobilised ligand	94%
Tyrosine-protein kinase ABL1, non-phosphorylated (ABL1, Homo sapiens, UniProt P00519, F317L)	cell-free assay	competition with immobilised ligand	100%
Proto-oncogene tyrosine-protein kinase Src (SRC, Homo sapiens, UniProt P12931)	cell-free assay	competition with immobilised ligand	100%
Dual specificity protein kinase TTK (TTK, Homo sapiens, UniProt P33981)	cell-free assay	competition with immobilised ligand	100%
Ephrin type-A receptor 7 (EPHA7, Homo sapiens, UniProt Q15375)	cell-free assay	competition with immobilised ligand	100%
Bone morphogenetic protein receptor type-2 (BMPR2, Homo sapiens, UniProt Q13873)	cell-free assay	competition with immobilised ligand	100%
Phosphatidylinositol 4,5-bisphosphate 3-kinase catalytic subunit alpha isoform (PIK3CA, Homo sapiens, UniProt P42336, Q546K)	cell-free assay	competition with immobilised ligand	100%
Ephrin type-A receptor 8 (EPHA8, Homo sapiens, UniProt P29322)	cell-free assay	competition with immobilised ligand	100%
Receptor-type tyrosine-protein kinase FLT3, autoinhibited (FLT3, Homo sapiens, UniProt P36888)	cell-free assay	competition with immobilised ligand	100%
Serine/threonine-protein kinase 36 (STK36, Homo sapiens, UniProt Q9NRP7)	cell-free assay	competition with immobilised ligand	100%
Inhibitor of nuclear factor kappa-B kinase subunit alpha (CHUK, Homo sapiens, UniProt O15111)	cell-free assay	competition with immobilised ligand	100%

Block 3
Sample: 1,9-decadiene/PBS
pH: 7.4
Compound	logD
CC(C)C[C@@H]1NC(=O)[C@H](CC(C)C)NC(=O)[C@@H](C(C)C)NC(=O)[C@H](CC(C)C)NC(=O)[C@H](C(C)C)NC(=O)[C@H](C)NC(=O)[C@H](C)NC1=O	-0.466
CC(C)C[C@@H]1NC(=O)[C@H](C)NC(=O)[C@@H](CC(C)C)NC(=O)[C@H](C)NC(=O)[C@@H](Cc2cscn2)NC(=O)[C@H](CC(C)C)NC(=O)[C@@H](CC(C)C)NC1=O	-1.92
CC(C)C[C@@H]1NC(=O)[C@H](C)NC(=O)[C@H](CC(C)C)NC(=O)[C@H](C(C)C)NC(=O)[C@H](CC(C)C)NC(=O)[C@@H](CC(C)C)NC(=O)[C@H](CC(C)C)NC1=O	1.15
CC(C)C[C@@H]1NC(=O)[C@H](C)NC(=O)[C@@H](CC(C)C)NC(=O)[C@H](CC(C)C)NC(=O)[C@H](C(C)C)NC(=O)[C@H](CC(C)C)NC(=O)[C@@H](CC(C)C)NC1=O	1.18
CC(C)C[C@@H]1NC(=O)[C@H](C)NC(=O)[C@H](CCC(=O)N2CCCC2)NC(=O)[C@@H](CCC(=O)N2CCCC2)NC(=O)[C@H](CC(C)C)NC(=O)[C@@H](CC(C)C)NC(=O)[C@H](CC(C)C)NC1=O	-2.33
CC(C)C[C@@H]1NC(=O)[C@H](C)NC(=O)[C@H](C)NC(=O)[C@@H](CC(C)C)NC(=O)[C@H](C(C)C)NC(=O)[C@H](CC(C)C)NC(=O)[C@@H](CC(C)C)NC1=O	-0.54
CC(C)C[C@@H]1NC(=O)[C@H](CC(C)C)NC(=O)[C@@H](CC(C)C)NC(=O)[C@@H](CC(C)C)NC(=O)[C@@H](Cc2cscn2)NC(=O)[C@H](CC(C)C)NC(=O)[C@@H](CC(C)C)NC1=O	1.27
CC(C)C[C@@H]1NC(=O)[C@H](CC(C)C)NC(=O)[C@@H](CC(C)C)NC(=O)[C@@H](CC(C)C)NC(=O)[C@@H](CCC(=O)N2CCCC2)NC(=O)[C@H](CC(C)C)NC(=O)[C@@H](CC(C)C)NC1=O	1.16
CC(C)C[C@@H]1NC(=O)[C@H](CC(C)C)NC(=O)[C@@H](CC(C)C)NC(=O)[C@H](CC(C)C)NC(=O)[C@@H](CCC(=O)N2CCCC2)NC(=O)[C@H](C)NC(=O)[C@H](C)NC1=O	-1.91
CC(C)C[C@@H]1NC(=O)[C@H](CC(C)C)NC(=O)[C@@H](CC(C)C)NC(=O)[C@H](C)NC(=O)[C@H](C)NC(=O)[C@@H](CC(C)C)NC(=O)[C@H](C)NC1=O	-1.31

Block 4
Structure (SMILES): CCC(=O)Nc1ccc2ncnc(Nc3cccc(Br)c3)c2c1
Observed: enzyme activity
Mode: inhibitor
Tested at: 0.5 µM
Baseline: control
target	remaining activity [%]
Ephrin type-A receptor 4 (EPHA4, Homo sapiens, UniProt P54764)	94.3
Mitogen-activated protein kinase kinase kinase kinase 4 (MAP4K4, Homo sapiens, UniProt O95819)	91.1
3-phosphoinositide-dependent protein kinase 1 (PDPK1, Homo sapiens, UniProt O15530)	107
Serine/threonine-protein kinase 17A (STK17A, Homo sapiens, UniProt Q9UEE5)	88.7
Tyrosine-protein kinase Blk (BLK, Homo sapiens, UniProt P51451)	90.7
Tyrosine-protein kinase receptor UFO (AXL, Homo sapiens, UniProt P30530)	126
Cyclin-dependent kinase 4, with cyclin D3 (CDK4, Homo sapiens, UniProt P11802)	90.4
Serine/threonine-protein kinase 16 (STK16, Homo sapiens, UniProt O75716)	99.6
cAMP-dependent protein kinase catalytic subunit gamma (PRKACG, Homo sapiens, UniProt P22612)	95.5
Homeodomain-interacting protein kinase 2 (HIPK2, Homo sapiens, UniProt Q9H2X6)	97
Tyrosine-protein kinase ABL1 (ABL1, Homo sapiens, UniProt P00519)	98.9
Ribosomal protein S6 kinase alpha-6 (RPS6KA6, Homo sapiens, UniProt Q9UK32)	90.6
Cyclin-dependent kinase 6, with cyclin D3 (CDK6, Homo sapiens, UniProt Q00534)	94.8
Ephrin type-B receptor 4 (EPHB4, Homo sapiens, UniProt P54760)	93.4
Ephrin type-B receptor 1 (EPHB1, Homo sapiens, UniProt P54762)	93.3
Cyclin-dependent kinase 1, with cyclin B (CDK1, Homo sapiens, UniProt P06493)	89.5
Testis-specific serine/threonine-protein kinase 2 (TSSK2, Homo sapiens, UniProt Q96PF2)	82.8
Homeodomain-interacting protein kinase 4 (HIPK4, Homo sapiens, UniProt Q8NE63)	87.8
Ribosomal protein S6 kinase alpha-5 (RPS6KA5, Homo sapiens, UniProt O75582)	90
MAP kinase-activated protein kinase 3 (MAPKAPK3, Homo sapiens, UniProt Q16644)	90.2
Tyrosine-protein kinase Srms (SRMS, Homo sapiens, UniProt Q9H3Y6)	99.4
Serine/threonine-protein kinase WNK3 (WNK3, Homo sapiens, UniProt Q9BYP7)	99.3
Calcium/calmodulin-dependent protein kinase type II subunit beta (CAMK2B, Homo sapiens, UniProt Q13554)	105
Phosphorylase b kinase gamma catalytic chain, skeletal muscle/heart isoform (PHKG1, Homo sapiens, UniProt Q16816)	92.4

A few entries again (block 2):
target	observed	method	remaining binding
Phosphatidylinositol 4,5-bisphosphate 3-kinase catalytic subunit alpha isoform (PIK3CA, Homo sapiens, UniProt P42336, Q546K)	cell-free assay	competition with immobilised ligand	100%
Activin receptor type-1B (ACVR1B, Homo sapiens, UniProt P36896)	cell-free assay	competition with immobilised ligand	93%
Phosphatidylinositol 4,5-bisphosphate 3-kinase catalytic subunit alpha isoform (PIK3CA, Homo sapiens, UniProt P42336, E542K)	cell-free assay	competition with immobilised ligand	82%
Ephrin type-A receptor 8 (EPHA8, Homo sapiens, UniProt P29322)	cell-free assay	competition with immobilised ligand	100%
Receptor-type tyrosine-protein kinase FLT3, autoinhibited (FLT3, Homo sapiens, UniProt P36888)	cell-free assay	competition with immobilised ligand	100%
Cyclin-dependent kinase 19 (CDK19, Homo sapiens, UniProt Q9BWU1)	–	competition binding	100%
Tyrosine-protein kinase ABL1, non-phosphorylated (ABL1, Homo sapiens, UniProt P00519, F317L)	cell-free assay	competition with immobilised ligand	100%
BMP-2-inducible protein kinase (BMP2K, Homo sapiens, UniProt Q9NSY1)	cell-free assay	competition with immobilised ligand	96%
Serine/threonine-protein kinase SBK1 (SBK1, Homo sapiens, UniProt Q52WX2)	cell-free assay	competition with immobilised ligand	100%
Glycogen synthase kinase-3 beta (GSK3B, Homo sapiens, UniProt P49841)	cell-free assay	competition with immobilised ligand	85%
Receptor-type tyrosine-protein kinase FLT3 (FLT3, Homo sapiens, UniProt P36888, D835V/ITD)	cell-free assay	competition with immobilised ligand	100%
